Assay results of several laboratories.
Every numbered part comes from another study and shows a few of its results, in no order. Values joined by “and” are separate records of one study, mostly repeats; a detail may differ.
Chain of UniProt Q9H2G2 (whole entry, looked up): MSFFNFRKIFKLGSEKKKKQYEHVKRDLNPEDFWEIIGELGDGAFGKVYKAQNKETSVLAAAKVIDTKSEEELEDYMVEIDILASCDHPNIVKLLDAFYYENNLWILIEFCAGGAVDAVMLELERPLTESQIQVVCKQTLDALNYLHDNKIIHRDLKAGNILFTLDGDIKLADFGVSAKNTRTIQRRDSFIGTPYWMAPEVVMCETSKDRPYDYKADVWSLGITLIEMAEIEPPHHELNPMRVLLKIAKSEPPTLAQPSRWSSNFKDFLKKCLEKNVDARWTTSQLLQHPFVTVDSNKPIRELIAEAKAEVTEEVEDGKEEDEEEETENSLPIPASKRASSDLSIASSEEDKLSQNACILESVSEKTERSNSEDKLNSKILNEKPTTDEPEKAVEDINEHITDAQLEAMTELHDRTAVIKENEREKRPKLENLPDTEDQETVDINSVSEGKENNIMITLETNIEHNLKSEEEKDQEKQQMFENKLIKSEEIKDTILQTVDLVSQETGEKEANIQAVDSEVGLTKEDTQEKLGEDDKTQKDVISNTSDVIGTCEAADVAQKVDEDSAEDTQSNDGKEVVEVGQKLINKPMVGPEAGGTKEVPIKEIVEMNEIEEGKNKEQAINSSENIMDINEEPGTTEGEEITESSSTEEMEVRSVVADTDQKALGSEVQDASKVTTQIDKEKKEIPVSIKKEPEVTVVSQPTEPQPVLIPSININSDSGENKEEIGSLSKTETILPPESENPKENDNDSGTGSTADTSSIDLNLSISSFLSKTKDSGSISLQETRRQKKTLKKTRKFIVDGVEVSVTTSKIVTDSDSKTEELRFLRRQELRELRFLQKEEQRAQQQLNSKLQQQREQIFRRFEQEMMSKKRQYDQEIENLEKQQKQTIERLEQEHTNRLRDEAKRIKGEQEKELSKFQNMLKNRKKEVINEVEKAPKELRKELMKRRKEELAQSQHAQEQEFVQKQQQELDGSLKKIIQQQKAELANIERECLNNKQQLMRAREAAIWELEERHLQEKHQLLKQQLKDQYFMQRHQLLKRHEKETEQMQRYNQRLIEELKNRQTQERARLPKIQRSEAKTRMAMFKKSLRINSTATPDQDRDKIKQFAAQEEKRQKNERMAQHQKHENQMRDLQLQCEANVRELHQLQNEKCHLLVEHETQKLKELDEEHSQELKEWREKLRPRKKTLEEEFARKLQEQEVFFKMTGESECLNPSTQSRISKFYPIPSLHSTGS

Set 1 — organism: Sarcocystis neurona; effect on: parasite growth; concentration: 10 µM; time: 96 h; endpoint: inhibition
O=C(O)CCc1nc(-c2ccccc2)c(-c2ccccc2)o1: -14%
C[C@H]1c2cccc(O)c2C(=O)C2=C(O)[C@]3(O)C(=O)C(C(N)=O)=C(O)[C@@H](N(C)C)[C@@H]3[C@@H](O)[C@@H]21: -12.6%
Cn1nnc2c(C(N)=O)ncn2c1=O: -10.7%
CCS(=O)(=O)CCn1c([N+](=O)[O-])cnc1C: -8.3%
COC(=O)C1=C(C)NC(C)=C(C(=O)OC)C1c1ccccc1[N+](=O)[O-]: -6.8%
CN(C)CCC=C1c2ccccc2COc2ccccc21: -5.3%
O=c1c(O[C@@H]2O[C@H](CO)[C@H](O)[C@H](O)[C@H]2O)c(-c2ccc(O)c(O)c2)oc2cc(O)cc(O)c12: -13.2%

Set 2 — effect on: enzyme activity; action: inhibitor; concentration: 10 µM; endpoint: inhibition
Target: Calcium/calmodulin-dependent protein kinase type II subunit alpha (CAMK2A, Homo sapiens, UniProt Q9UQM7)
Chain of UniProt Q9UQM7 (whole entry, looked up): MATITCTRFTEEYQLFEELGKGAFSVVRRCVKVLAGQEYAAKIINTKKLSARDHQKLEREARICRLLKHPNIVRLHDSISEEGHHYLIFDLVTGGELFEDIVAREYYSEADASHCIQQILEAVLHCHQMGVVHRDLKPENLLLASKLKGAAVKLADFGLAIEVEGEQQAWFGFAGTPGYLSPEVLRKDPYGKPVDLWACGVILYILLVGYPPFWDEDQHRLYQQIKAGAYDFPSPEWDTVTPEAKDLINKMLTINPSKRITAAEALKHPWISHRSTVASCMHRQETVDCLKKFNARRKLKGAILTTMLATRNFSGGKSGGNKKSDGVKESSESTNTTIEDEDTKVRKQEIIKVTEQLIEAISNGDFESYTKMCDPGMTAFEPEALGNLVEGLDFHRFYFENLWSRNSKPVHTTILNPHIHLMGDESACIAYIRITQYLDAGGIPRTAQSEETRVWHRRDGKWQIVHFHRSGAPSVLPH
CO/N=C(\C(=O)N[C@@H]1C(=O)N2C(C(=O)O)=C(COC(N)=O)CS[C@H]12)c1ccco1: -15%
O=c1cc(-c2ccc(O)cc2)oc2cc(O)c([C@@H]3O[C@H](CO)[C@@H](O)[C@H](O)[C@H]3O[C@@H]3OC[C@H](O)[C@H](O)[C@H]3O)c(O)c12: -13%
COc1ccc(-c2cc(=O)c3c(O)cc(O)cc3o2)cc1O: -9%
C=C1C(=O)O[C@@H]2CC(C)=C([C@@H](C)CCCOC(C)=O)[C@@H](O)[C@H]12: -2%
C[C@@H]1C[C@H]2OC(=O)[C@@]3(C)CCC[C@@](C)([C@@H]23)[C@@]1(O)CCc1ccoc1: 30%
Cc1cc(O)cc2c1O[C@](C)(CCC[C@H](C)CCC[C@H](C)CCCC(C)C)CC2: 13%
COc1c(O[C@@H]2O[C@H](CO[C@@H]3OC[C@@H](O)[C@H](O)[C@H]3O)[C@@H](O)[C@H](O)[C@H]2O)cc2occ(-c3ccc(O)cc3)c(=O)c2c1O: -6%

Set 3 — effect on: enzyme activity; action: inhibitor; concentration: 77 µM; reference: untreated; endpoint: remaining activity
Target: DNA polymerase theta, ATPase domain (POLQ, Homo sapiens, UniProt O75417)
Chain of UniProt O75417 (whole entry, unmodified, looked up): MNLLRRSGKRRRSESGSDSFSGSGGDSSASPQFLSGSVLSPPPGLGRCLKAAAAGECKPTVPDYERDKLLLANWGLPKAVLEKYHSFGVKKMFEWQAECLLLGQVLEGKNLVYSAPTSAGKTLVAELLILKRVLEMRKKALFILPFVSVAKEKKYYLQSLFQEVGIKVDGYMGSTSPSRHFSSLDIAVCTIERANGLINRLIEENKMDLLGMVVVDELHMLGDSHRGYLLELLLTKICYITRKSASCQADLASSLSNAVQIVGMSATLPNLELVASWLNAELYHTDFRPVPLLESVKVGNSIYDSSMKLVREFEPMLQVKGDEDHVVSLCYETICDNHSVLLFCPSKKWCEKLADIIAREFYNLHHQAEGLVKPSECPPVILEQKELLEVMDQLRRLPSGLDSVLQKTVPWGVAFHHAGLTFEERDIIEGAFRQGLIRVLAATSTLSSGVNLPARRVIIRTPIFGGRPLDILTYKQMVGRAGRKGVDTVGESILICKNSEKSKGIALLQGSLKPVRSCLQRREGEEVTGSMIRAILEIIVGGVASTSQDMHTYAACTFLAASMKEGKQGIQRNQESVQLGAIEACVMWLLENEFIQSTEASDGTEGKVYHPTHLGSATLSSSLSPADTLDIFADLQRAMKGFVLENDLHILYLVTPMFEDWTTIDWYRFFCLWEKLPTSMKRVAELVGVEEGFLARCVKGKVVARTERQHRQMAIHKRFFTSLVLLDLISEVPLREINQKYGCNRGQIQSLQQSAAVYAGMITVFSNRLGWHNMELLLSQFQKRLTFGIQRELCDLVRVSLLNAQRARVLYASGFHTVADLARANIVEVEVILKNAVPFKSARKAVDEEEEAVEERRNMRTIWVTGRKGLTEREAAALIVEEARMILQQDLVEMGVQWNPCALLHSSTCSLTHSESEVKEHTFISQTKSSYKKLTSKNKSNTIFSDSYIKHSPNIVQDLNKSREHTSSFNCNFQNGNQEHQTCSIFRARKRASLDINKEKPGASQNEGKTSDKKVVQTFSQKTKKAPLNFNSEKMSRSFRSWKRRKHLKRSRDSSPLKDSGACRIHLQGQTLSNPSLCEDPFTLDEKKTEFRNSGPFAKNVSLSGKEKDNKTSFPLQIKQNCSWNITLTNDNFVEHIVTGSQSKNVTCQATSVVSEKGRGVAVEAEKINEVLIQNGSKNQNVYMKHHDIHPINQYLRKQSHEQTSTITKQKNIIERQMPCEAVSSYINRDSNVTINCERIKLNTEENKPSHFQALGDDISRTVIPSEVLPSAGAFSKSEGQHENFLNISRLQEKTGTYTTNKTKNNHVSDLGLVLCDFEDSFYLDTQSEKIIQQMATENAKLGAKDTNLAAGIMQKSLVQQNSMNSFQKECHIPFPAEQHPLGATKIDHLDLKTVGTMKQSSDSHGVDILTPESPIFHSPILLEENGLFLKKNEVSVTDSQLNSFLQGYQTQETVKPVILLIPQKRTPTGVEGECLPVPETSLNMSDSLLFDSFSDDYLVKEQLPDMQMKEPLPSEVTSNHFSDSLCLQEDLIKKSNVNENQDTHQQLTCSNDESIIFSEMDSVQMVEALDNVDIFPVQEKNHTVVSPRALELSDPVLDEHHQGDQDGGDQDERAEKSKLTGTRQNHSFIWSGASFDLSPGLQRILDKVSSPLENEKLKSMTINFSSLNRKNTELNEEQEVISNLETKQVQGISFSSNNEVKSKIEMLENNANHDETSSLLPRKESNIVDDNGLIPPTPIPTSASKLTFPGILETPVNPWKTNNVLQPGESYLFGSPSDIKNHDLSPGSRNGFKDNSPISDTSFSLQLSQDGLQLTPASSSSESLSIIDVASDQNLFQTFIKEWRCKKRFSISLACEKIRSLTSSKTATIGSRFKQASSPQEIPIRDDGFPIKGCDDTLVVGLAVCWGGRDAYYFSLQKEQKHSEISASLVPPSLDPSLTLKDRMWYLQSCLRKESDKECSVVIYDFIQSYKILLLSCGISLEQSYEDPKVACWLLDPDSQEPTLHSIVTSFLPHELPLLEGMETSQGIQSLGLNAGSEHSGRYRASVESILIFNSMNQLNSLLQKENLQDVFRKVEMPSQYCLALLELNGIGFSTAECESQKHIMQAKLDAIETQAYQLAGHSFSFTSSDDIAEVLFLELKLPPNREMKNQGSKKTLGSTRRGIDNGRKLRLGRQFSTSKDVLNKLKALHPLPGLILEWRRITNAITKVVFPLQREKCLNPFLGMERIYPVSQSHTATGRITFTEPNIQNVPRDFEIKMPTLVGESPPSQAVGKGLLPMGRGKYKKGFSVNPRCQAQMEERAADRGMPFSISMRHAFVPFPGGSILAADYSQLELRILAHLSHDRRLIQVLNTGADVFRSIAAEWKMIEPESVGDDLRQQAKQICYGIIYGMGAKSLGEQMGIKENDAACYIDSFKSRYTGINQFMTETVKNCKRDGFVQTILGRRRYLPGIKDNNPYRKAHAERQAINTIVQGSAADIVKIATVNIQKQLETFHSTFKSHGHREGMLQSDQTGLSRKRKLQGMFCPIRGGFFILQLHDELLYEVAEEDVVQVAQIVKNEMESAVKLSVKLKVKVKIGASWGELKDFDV
CCC(C)(C)c1ccc(CC(C)CN2C[C@@H](C)O[C@@H](C)C2)cc1 (stereo partly shown): 101%
Cn1c(=O)[nH]c2ncn(C)c2c1=O: 101%
Oc1ccc(Cn2cc[nH]c2=S)cc1: 102%
CC1(C)OC(=O)NC1=O: 98.1%
O=C(O)c1ccccc1Nc1cccc(C(F)(F)F)c1: 77.8% and 76.9%
CCOC(=O)C1=C(N)Oc2ccc(Br)cc2[C@H]1[C@H](C#N)C(=O)OCC: 99%
CC[C@]12CCCN3CCc4c(n(c5ccccc45)C(=O)C1)[C@@H]32: 102%
C[C@]12C[C@H](O)[C@H]3[C@@H](CCC4=CC(=O)CC[C@@]43C)[C@@H]1CC[C@@H]2C(=O)CO: 99.3% and 103%

Set 4 — method: competition with immobilised ligand; concentration: 1 µM; endpoint: remaining binding
Structure (SMILES): CN(c1ccnc(CNc2nc(Nc3ccc4c(c3)CC(=O)N4)ncc2C(F)(F)F)n1)S(C)(=O)=O
ALK (Homo sapiens, UniProt Q9UM73, L1196M); cell-free assay: 65%
BRSK2 (Homo sapiens, UniProt Q8IWQ3); cell-free assay: 97%
CAMK1D (Homo sapiens, UniProt Q8IU85); cell-free assay: 79%
DCLK1 (Homo sapiens, UniProt O15075); cell-free assay: 57%
MAK (Homo sapiens, UniProt P20794); cell-free assay: 100%
MAP3K12 (Homo sapiens, UniProt Q12852); cell-free assay: 48%
Tyrosine-protein kinase ABL1, phosphorylated (ABL1, Homo sapiens, UniProt P00519, H396P); cell-free assay: 46%
TLK2 (Homo sapiens, UniProt Q86UE8); cell-free assay: 100%
PRKCI (Homo sapiens, UniProt P41743); cell-free assay: 55%
eIF-2-alpha kinase GCN2, C-terminal kinase domain (EIF2AK4, Homo sapiens, UniProt Q9P2K8, S808G); cell-free assay: 6.7%
ULK2 (Homo sapiens, UniProt Q8IYT8); cell-free assay: 5.4%
PIP5K1C (Homo sapiens, UniProt O60331); cell-free assay: 91%
MARK1 (Homo sapiens, UniProt Q9P0L2); cell-free assay: 77%
RIOK1 (Homo sapiens, UniProt Q9BRS2); cell-free assay: 9.7%
TESK1 (Homo sapiens, UniProt Q15569); cell-free assay: 97%
FLT3 (Homo sapiens, UniProt P36888, N841I); binding: 0%
SLK (Homo sapiens, UniProt Q9H2G2); cell-free assay: 41%
Tyrosine-protein kinase ABL1, non-phosphorylated (ABL1, Homo sapiens, UniProt P00519, F317I); binding: 100%
PIK3CA (Homo sapiens, UniProt P42336, M1043I); cell-free assay: 95%
GRK1 (Homo sapiens, UniProt Q15835); cell-free assay: 74%
NTRK3 (Homo sapiens, UniProt Q16288); cell-free assay: 45%
COQ8A (Homo sapiens, UniProt Q8NI60); cell-free assay: 79%
EPHA4 (Homo sapiens, UniProt P54764); cell-free assay: 90%
TGFBR1 (Homo sapiens, UniProt P36897); cell-free assay: 44%
NUAK1 (Homo sapiens, UniProt O60285); cell-free assay: 21%

Set 5 — action: antagonist; endpoint: IC50
Target: Beta-1 adrenergic receptor (ADRB1, Homo sapiens, UniProt P08588)
Chain of UniProt P08588 (whole entry, looked up): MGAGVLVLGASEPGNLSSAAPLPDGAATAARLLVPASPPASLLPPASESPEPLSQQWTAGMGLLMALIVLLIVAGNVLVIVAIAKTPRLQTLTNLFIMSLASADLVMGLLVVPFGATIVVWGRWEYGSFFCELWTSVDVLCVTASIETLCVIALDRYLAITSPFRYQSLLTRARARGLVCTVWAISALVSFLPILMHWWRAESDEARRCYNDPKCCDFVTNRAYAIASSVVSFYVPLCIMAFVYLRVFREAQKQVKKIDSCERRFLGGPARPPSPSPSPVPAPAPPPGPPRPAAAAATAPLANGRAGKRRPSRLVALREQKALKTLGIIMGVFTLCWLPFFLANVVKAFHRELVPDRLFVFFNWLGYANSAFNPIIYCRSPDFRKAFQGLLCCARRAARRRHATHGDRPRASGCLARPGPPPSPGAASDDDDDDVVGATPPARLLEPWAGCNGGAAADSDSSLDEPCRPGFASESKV
Cc1ccc(OCC(O)CNc2nc(C)nc3c2c(C)nn3C)c(C)c1 (stereo not shown): ≥ 100 µM
COc1ccccc1N1CCN(CC(=O)N2CCCC2c2ccc3c(c2)OCCO3)CC1 (stereo not shown): ≥ 100 µM
CC(=O)NC(Cc1ccc(I)cc1)C(=O)NCC(N)C(=O)c1ccccc1 (stereo not shown): ≥ 100 µM
CN(C)c1cccc(NC(=O)C2=NO[C@@H]3CN(c4cccnc4)C[C@H]23)c1: ≥ 100 µM
Nc1ncnc2nc(-c3ccc(N4CCOCC4)nc3)cc(-c3cccc(Br)c3)c12: 25.1 µM
O=C1c2cnc(-c3cccc(O)c3)nc2OCCN1c1cccc(C(F)(F)F)c1: ≥ 100 µM
O=c1c(Cl)c(NC(c2ccccc2)c2cccs2)cnn1-c1ccccc1 (stereo not shown): ≥ 100 µM
CN1CCN(CC(O)COc2ccc(CN3CC(c4ccccn4)C3)cc2)CC1 (stereo not shown): ≥ 100 µM

Repeated from above (set 3):
O=C(O)c1ccccc1Nc1cccc(C(F)(F)F)c1: 77.8% and 76.9%
CC1(C)OC(=O)NC1=O: 98.1%
Oc1ccc(Cn2cc[nH]c2=S)cc1: 102%
